Results of several laboratories.
Each numbered part is a random draw from the data of one study; scales do not carry over between parts. ± gives the spread as reported. Converted amounts (≈) assume the structure as drawn.
Sequence of UniProt O42275 (whole entry, looked up): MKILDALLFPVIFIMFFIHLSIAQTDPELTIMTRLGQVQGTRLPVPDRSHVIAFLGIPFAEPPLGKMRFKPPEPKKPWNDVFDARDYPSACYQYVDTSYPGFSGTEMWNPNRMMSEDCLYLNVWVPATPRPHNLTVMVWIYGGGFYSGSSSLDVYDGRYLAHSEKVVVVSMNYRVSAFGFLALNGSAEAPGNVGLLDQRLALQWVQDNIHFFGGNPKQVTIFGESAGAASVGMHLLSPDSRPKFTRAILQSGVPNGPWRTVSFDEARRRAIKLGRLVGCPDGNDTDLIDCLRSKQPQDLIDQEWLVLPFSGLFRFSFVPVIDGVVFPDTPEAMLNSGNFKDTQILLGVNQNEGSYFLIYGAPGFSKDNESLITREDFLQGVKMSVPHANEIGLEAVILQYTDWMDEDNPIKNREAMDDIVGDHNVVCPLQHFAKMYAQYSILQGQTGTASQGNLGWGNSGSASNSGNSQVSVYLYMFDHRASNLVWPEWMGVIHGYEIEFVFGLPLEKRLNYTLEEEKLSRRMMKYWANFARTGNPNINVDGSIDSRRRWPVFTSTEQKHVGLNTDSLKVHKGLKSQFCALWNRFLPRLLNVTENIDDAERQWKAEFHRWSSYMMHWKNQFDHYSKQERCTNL
Sequence of UniProt P34913 (whole entry, looked up): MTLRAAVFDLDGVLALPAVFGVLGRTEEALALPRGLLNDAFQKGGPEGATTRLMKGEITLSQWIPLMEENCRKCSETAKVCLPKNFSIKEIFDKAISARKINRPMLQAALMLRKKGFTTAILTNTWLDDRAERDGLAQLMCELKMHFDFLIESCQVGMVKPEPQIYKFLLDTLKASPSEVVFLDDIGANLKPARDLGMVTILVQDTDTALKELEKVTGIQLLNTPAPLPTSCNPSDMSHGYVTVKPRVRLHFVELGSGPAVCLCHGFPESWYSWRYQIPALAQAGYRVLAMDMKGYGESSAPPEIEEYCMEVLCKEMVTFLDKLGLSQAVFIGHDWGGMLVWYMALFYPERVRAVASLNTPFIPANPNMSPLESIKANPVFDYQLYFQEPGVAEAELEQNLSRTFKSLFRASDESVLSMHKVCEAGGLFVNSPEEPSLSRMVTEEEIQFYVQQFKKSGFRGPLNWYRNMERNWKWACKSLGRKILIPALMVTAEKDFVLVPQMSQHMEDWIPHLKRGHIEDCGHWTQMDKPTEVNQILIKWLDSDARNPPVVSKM

Block 1
Compound: Cc1cc(OCc2nnc(SC3CCCC3)n2-c2cccnc2)ccc1-c1ccc(S(C)(=O)=O)cc1
Endpoint: GI50
KM12: 1440 nM
HCT-116: 622 nM
SK-OV-3: 3450 nM
RPMI-8226: 134 nM

Single results of other studies
O=C(Nc1ccc(-c2cnc3ccccc3c2)cc1)C1CCN(Cc2cccnc2)CC1  IC50 (ache (Electrophorus electricus, UniProt O42275)): > 10000 nM
pyc (Rhizobium etli, UniProt Q2K340)  Km (NC(=O)OP(=O)(O)O; steady-state kinetics; pH 7.5, 25 °C, apparent): 2600 µM
O=C(Nc1ccc(-c2ccc3ccccc3n2)cc1)C1CCN(Cc2ccccc2F)CC1  solubility (sodium phosphate buffer, 1% DMSO; pH 7.4): 31 to 63 µM (≈ 13.6 to 27.7 µg/mL)
Cc1ccccc1S(=O)(=O)Nc1c(N2CCC(NC(=O)Nc3ccc(C#N)cc3Cl)CC2)c(=O)c1=O  IC50 (EPHX2 (Homo sapiens, UniProt P34913)): 706 ± 65.4 nM
